Results pooled from the literature.
Parts stem from different laboratories: compare values within a part only.

Block 1
Target: RNA binding protein fox-1 homolog 2, RRM domain, GST-SBP tag (RBFOX2, Homo sapiens, UniProt O43251-10, residues 100-194)
Technique: RNA Bind-n-Seq
Molecule type: RNA
Sample: in vitro
Concentration: 365 nM
Setting: natural RNA segment, single round, ends assumed
Baseline: no-protein control
Direction: higher = stronger binding
Constant ends, left off below: GGGAGUUCUACAGUCCGACGAUC … UGGAAUUCUCGGGUGCCAA
Construct (chain): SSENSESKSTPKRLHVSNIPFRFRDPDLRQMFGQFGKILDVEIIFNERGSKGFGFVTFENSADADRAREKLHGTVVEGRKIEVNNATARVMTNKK
| Oligonucleotide | RBNS enrichment (R) |
| --- | --- |
| UGCGUCCAAGACUUACGGGUGGUUUAGGGGAAAGUGCUAGCAACAGUGUCAAUGUCAUUGUUAACUAUAUUUCAUAUUUGAGGUCUCAUUGUUUUCAAAUAAACAGUGUU | 0.552 |
| AUUUUUCCAAGCUGAUUUAUUAGUUAUAACCAGUAAUACACACAUCAUCUAGCUUUUCAUUCUUUAAGUAAGGGGGAAAAAAUCACUAAACAAUAAAGUUGGCUAGACCU | 0.675 |
| GUCCAGAUUACUUAGUUUAAAUAGCUACAUUUUCUUCUGUAUCUAAAACUUCGUUAGAAGAAAGUAAUAGUAUUAUUUGCAGAAAGCCAGUCGAUCACAGCCAUUACCAA | 0.332 |
| GAACUGAAUAAACCAUUAACUGGCCAUCCUGGUUUUGCAGAGAUCAGGUUGUUGACAGUUCCUGGUUGACCCACAGCUACCCAUGUCAGUUAUCUCCACUAACAUAUCCA | 0.233 |
| AGGUGUGUUACUUUGUUGAUCAAUAACUUUGGAACAAUUAUGGAUCAAUUCUAUGGUCACUCUGAAUUUUCAUGUCAUUAAUCACAUAAAAAUUGAUAAUACCUCAUUCU | 0.396 |
| ACAGAUAGGCCAAGGGCUACUCUCUGGCAUCUCCAGGUGUUUUGUAGCAAACAGCCACUUAGUGCUUUGUCCUGGACUCCACUCAGCCUCAGGAUGGGGAAUAGCCAAGA | 0.355 |
| AAGACCACCAGGCUCUGAGUGACCUCUCUAAUUCUGUCUUCCCACCCACCAGUGACUUGACUGCUCUGCACCUUUGCAUCUUCAGAGCUGCUGCGUCUAUCAGGAGAGCA | 2.26 |
| UCCUUUUAGCAAUGCAACAUAUUAACAAAAUUGGGUGCAUUCAGGGUGGUAUGGCCAUAGACCAGAGCAACACAUUGAAAUGUAUACAGAUGUACUAGCUAAAGUCUCUU | 0.379 |
| ACUGGCCCCAAGAACUGAUAAGACUCCAGUGGGGGACCACCACAUUCAUAGCCCCGUCACAGGAAGUGGGAGAUGCUCCUUUUUGUCCCAGACUGGAAAUCCAUCACAUC | 0.623 |
| UGCCAGCCACCUGUUCUCGCCACCGGCCACCACGUGCCGGGCCGCCAUCGGAGGUGCCUGAAGAGCUUGUGUCAGGGAGCGGUUUGGCCAGUCAGAGACAAGUCCCAAGA | 0.43 |
| AGUACUUUAUAUUCUUUAUCAUAUCACUUUUUGUAAGUGUUGAAUAUAUUCCUGUUUAUUUUUCUAUGUUCUGUUUUGUAGCCUUAAGAAGUGUUUCAAACAUAUCUGAA | 0.64 |
| ACCUAAAGGAAUGGAAUGAUGCUGUUUUUGUUUUGAGUUUGACCUUAACCUUGCUAUGUCUCUCCUUUGAAUAAUGGGGCUUAAAAGAAUAAUGAACAUGGAAUUUGAAU | 1.45 |

Block 2
Target: RING finger protein unkempt homolog, zinc fingers 1-6, GST-SBP tag (UNK, Homo sapiens, UniProt Q9C0B0, residues 30-357)
Sequence of UniProt Q9C0B0 (30-357, looked up): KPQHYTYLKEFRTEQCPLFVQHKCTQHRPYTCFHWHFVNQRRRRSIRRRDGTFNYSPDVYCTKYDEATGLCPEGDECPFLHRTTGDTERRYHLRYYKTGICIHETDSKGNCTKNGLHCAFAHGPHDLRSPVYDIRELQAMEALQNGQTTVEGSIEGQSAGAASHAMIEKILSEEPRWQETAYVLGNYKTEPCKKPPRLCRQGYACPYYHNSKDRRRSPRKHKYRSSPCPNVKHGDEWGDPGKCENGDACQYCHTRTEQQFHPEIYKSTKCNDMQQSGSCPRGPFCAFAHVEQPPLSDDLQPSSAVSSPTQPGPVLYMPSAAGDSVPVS
Technique: RNA Bind-n-Seq
Molecule type: RNA
Sample: in vitro
Concentration: not given
Setting: RNA with constant flanks, human and mouse sites, ends assumed
Baseline: input RNA pool
Direction: higher = stronger binding
Constant ends, left off below: GGGAGUUCUACAGUCCGACGAUC … CAACAGAGGAUUGAGCAUCA
| Oligonucleotide | bound/input enrichment |
| --- | --- |
| GCUUUAAGUCUUUUGGGGAGCCAUAAGCCCUUGAUUCUACAGCAUGAGAACCUGGAAACCAUAGUGGACUUCAUAAAGAACACACUCCCCAACCUGGGCCUGGUGCAGAUGGAGAAGACC | 0.237 ratio |
| CGUGAGAAGAUAGAGGCAGAACUGCAGGACAUCUGCAAUGAUGUUCUGGAGCUGUUGGACAAAUAUCUUAUUCCCAAUGCUACACAACCAGAAAGUAAGGUGUUCUACUUGAAAAUGAAA | 0.144 ratio |
| UCCCCAGCCCCACCCGCCAAAAUGAACAGCUCGGACGAGGAGAAGCAGCUGCAGCUCAUCACCAGCUUGAAGGAGCAAGCCAUUGGCGAAUAUGAAGACCUUCGAGCAGAGAACCAGAAA | 0.267 ratio |
| UAGUGAACAAUGACCUCAUUUUAUUUUCUAUGUUAGUUAUUUAUUUCAAAAUUUACAUUUUAGUUUAUUUUCGUCUGUAAAGCGUAUGUUUCGCACUGCUCUUUUACUCUGAGGGUUUAA | 190 ratio |
| AAGUACUUAGCCCAGCUGCUGAACAGUGUACGGUUACCAUUGCUGAGCGUUAAGUUCCUCACUAGGCUCUAUGAAGCGAAUCAUCUUAUCCGUGAUGAUCGCACCUGUAAACAUCUCUUG | 0.405 ratio |
| AGGCAUCCAGGUUUAAGAAACAUUCUGCCUAUAACUACUGCCAAAGUGCCUAUUGUAAAAUUUGAACACAGGAGAAGUGGACUAGAAGGUGAUAUCAGUUUAUAUAACACAUUGGCUCAA | 0.919 ratio |
| CAACUUGGGGAGGAUAUUCGGCGAAUUCCUAUUCAUAAUGAAGAUAUUACUUAUGAUGAAUUAGUGCUAAUGAUGCAACGAGUUUUCAGAGGAAAACUUCUGAGUAAUGAUGAAGUAACA | 1.16 ratio |
| CACUGGAAGUGUGCUUCUAGGCAUAGUCAUUGGUUUUGCAAAAAGAGGGCUCAAAUUUAAAUAGAAAUUUACAGCUAUUUGAAUGGUCAGAUAUACCAAGAAAGAAAAAUAUUUCUGUUC | 0.173 ratio |
| CCCUAUUUAGGUUUUAAACAGAUUAACCUUUGGACUAUGUUUCAAGCUGCUCAAAAACUGGGAGGAUAUGAAACAAUAACAGCCCGCCGUCAGUGGAAACAUAUUUAUGAUGAAUUAGGC | 2.18 ratio |
| CAAGCAGCUGACACAGGAUGAUGAUACUGAUGCGGUUGAGAUUGCUAUCGACAACACGGCUUUUAUGGACGAGUUCUUUUCUGAGAUUGAGGAAACUCGGCUUAACAUUGACAAGAUCUC | 0.116 ratio |
| AAAACCAAAAAAAAAUCUAGAGAUGUGGCUGUGGCUUUUUGGGAGGUGGGGCAUGGGAGGACCAGAGACGAAGGGCUUGGAAGGAGACCCCCACAUGCAUCAUUUCCUCCUCUUCACAGU | 0.353 ratio |

Block 3
Target: Interferon regulatory factor 7, full length, phosphomimetic (IRF7, Homo sapiens, UniProt Q92985, residues 1-503, S471D/S472D/S475D/S476D/S477D/S483D/S484D/S487D)
Sequence of UniProt Q92985 (whole entry, unmodified, looked up): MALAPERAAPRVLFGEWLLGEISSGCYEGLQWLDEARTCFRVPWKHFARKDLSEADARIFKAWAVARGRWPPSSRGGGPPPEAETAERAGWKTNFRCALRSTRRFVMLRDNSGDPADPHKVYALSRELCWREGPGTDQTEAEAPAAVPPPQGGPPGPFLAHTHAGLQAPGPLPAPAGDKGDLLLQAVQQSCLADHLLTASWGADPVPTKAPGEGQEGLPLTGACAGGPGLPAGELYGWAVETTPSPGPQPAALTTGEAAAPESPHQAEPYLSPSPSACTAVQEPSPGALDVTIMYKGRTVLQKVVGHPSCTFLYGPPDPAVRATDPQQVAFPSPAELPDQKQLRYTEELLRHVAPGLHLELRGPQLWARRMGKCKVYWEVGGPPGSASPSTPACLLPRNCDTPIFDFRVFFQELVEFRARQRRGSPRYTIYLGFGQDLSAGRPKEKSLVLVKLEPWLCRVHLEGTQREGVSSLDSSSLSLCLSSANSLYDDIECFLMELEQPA
Technique: protein-binding microarray
Molecule type: double-stranded DNA, one strand shown
Sample: in vitro
Concentration: 2200 nM top
Setting: 60-bp whole probe
Together with: salmon DNA 0.4 mg/ml
Baseline: random background probes
Direction: higher = stronger binding
Constant ends, left off below: GCCTAGCAC … GTCTTGATTCGCTTGACGCTGCTG
| Oligonucleotide | fitted relative affinity [z-score] |
| --- | --- |
| TTTTGCTTTCTTTTTGCACTGTGCTAG | 10.2 |
| TTAGATATCGGGACTGAATTAGTGCTA | -0.333 |
| ATTGCTTCCTCTTTCTCTGCGTGCTAG | 3.04 |
| GACGAACTGGGGCTTCGAGACGTGCTA | -0.252 |
| GACGAACTGGGCTATCGAGACGTGCTA | -0.576 |
| TAAGATTTCGGGTATCGATTAGTGCTA | 2.73 |
| TATCAGTTTAATATCTAAGAGTGCTAG | 0.481 |
| GCCGGTATCGGTATCGGGACGTGCTAG | 0.607 |
| TTAGGTTTAGGGTATCGGTTAGTGCTA | 0.367 |
| TAACCTTGAACTTTGGCCTCGTGCTAG | 0.23 |
| ACCACTTTCCATTTCTGTTTGTGCTAG | 10.3 |
| GCCGGACTGGGGACTGGGGACGTGCTA | -0.826 |
| GACGGACTGCTGTTCCTGACGTGCTAG | 0.506 |
| TTACGTCTCGGTCTCGGTTAGTGCTAG | 1.9 |
| TTTGGTATCCTTTTCCTTTAGTGCTAG | 2.6 |
| GACGGTCTCCTTTTCGTGACGTGCTAG | 1.53 |
| TTAGGTACCGGTCTCGGTTAGTGCTAG | 0.373 |

Block 4
Target: Histone acetyltransferase KAT6A, both winged helices, GST fusion (KAT6A, Homo sapiens, UniProt Q92794, residues 1-181)
Technique: protein binding microarray
Molecule type: double-stranded DNA, one strand shown
Sample: in vitro
Concentration: not given
Setting: 8-mer, flanks averaged, mean of 2 arrays, mostly near background
Baseline: not given
Direction: higher = stronger binding
Target sequence (chain): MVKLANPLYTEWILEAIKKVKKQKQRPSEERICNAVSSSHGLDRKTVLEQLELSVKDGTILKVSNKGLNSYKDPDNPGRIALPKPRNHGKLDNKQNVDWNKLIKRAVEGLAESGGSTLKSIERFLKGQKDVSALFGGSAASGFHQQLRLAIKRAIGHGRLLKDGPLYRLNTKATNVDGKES
| Oligonucleotide | E-score |
| --- | --- |
| CTGCCCCA | -0.184 |
| GTGATTGA | 0.0313 |
| ACGTAAGG | -0.144 |
| TATCATCA | 0.0393 |
| CTTATGGA | -0.172 |
| CCTACGAG | -0.136 |
| CTTCCTCC | -0.125 |
| CGGATGAA | 0.0868 |
| AATCACTA | -0.0165 |
| GACATCAC | 0.0549 |
| AACCATGA | -0.0112 |
| GGCTACTA | 0.0641 |
| AGGCTGAG | -0.149 |
| AAGTAGTA | -0.0897 |
| ATCTTCTA | -0.0149 |
| CTTCAGAC | 0.0321 |
| ACATAACC | -0.0496 |
| TAAGCGTA | 0.143 |
| CAGTCCCG | 0.139 |
| ACCTGATA | -0.131 |
| AAATATTG | 0.00949 |
| AATCATAC | 0.0735 |
| AAATACAT | -0.0462 |
| ACTTGTTG | -0.24 |
| ACAAAACG | 0.0556 |

Block 5
Target: TAR DNA-binding protein 43, full length, His tag (TARDBP, Homo sapiens, UniProt Q13148, residues 1-414)
Technique: RNA Bind-n-Seq
Molecule type: RNA
Sample: in vitro
Concentration: 20 nM
Setting: 6-mer, flanks averaged, single round
Together with: 150 mM LiCl
Baseline: input library
Direction: higher = stronger binding
| Oligonucleotide | 6-mer enrichment (R) |
| --- | --- |
| GGAUUA | 0.908 |
| CCCCCU | 1.42 |
| AAGGUG | 1.14 |
| CUUUCU | 1.02 |
| AAAAUC | 0.858 |
| AGGACU | 0.981 |
| AGUGCC | 0.99 |
| CAUACU | 0.85 |
| GAGCCU | 0.927 |
| AGGGCA | 0.973 |
| GACAUC | 0.883 |
| CCUAAG | 0.847 |
| UCAAAU | 0.89 |
| GACGCC | 0.955 |
| GAAUAG | 0.973 |
| UUGGCC | 1.04 |
| UUAAAG | 0.911 |
| AGUCCC | 0.958 |
| GAAUGU | 1.29 |
| ACCACA | 0.895 |
| GAAACU | 0.83 |
| ACCACG | 0.863 |

For quick reference, copied from above (block 1):
| Oligonucleotide | RBNS enrichment (R) |
| --- | --- |
| GAACUGAAUAAACCAUUAACUGGCCAUCCUGGUUUUGCAGAGAUCAGGUUGUUGACAGUUCCUGGUUGACCCACAGCUACCCAUGUCAGUUAUCUCCACUAACAUAUCCA | 0.233 |
| AGGUGUGUUACUUUGUUGAUCAAUAACUUUGGAACAAUUAUGGAUCAAUUCUAUGGUCACUCUGAAUUUUCAUGUCAUUAAUCACAUAAAAAUUGAUAAUACCUCAUUCU | 0.396 |
| ACAGAUAGGCCAAGGGCUACUCUCUGGCAUCUCCAGGUGUUUUGUAGCAAACAGCCACUUAGUGCUUUGUCCUGGACUCCACUCAGCCUCAGGAUGGGGAAUAGCCAAGA | 0.355 |
| AAGACCACCAGGCUCUGAGUGACCUCUCUAAUUCUGUCUUCCCACCCACCAGUGACUUGACUGCUCUGCACCUUUGCAUCUUCAGAGCUGCUGCGUCUAUCAGGAGAGCA | 2.26 |
| UCCUUUUAGCAAUGCAACAUAUUAACAAAAUUGGGUGCAUUCAGGGUGGUAUGGCCAUAGACCAGAGCAACACAUUGAAAUGUAUACAGAUGUACUAGCUAAAGUCUCUU | 0.379 |
| ACUGGCCCCAAGAACUGAUAAGACUCCAGUGGGGGACCACCACAUUCAUAGCCCCGUCACAGGAAGUGGGAGAUGCUCCUUUUUGUCCCAGACUGGAAAUCCAUCACAUC | 0.623 |
| UGCCAGCCACCUGUUCUCGCCACCGGCCACCACGUGCCGGGCCGCCAUCGGAGGUGCCUGAAGAGCUUGUGUCAGGGAGCGGUUUGGCCAGUCAGAGACAAGUCCCAAGA | 0.43 |
| AGUACUUUAUAUUCUUUAUCAUAUCACUUUUUGUAAGUGUUGAAUAUAUUCCUGUUUAUUUUUCUAUGUUCUGUUUUGUAGCCUUAAGAAGUGUUUCAAACAUAUCUGAA | 0.64 |
| ACCUAAAGGAAUGGAAUGAUGCUGUUUUUGUUUUGAGUUUGACCUUAACCUUGCUAUGUCUCUCCUUUGAAUAAUGGGGCUUAAAAGAAUAAUGAACAUGGAAUUUGAAU | 1.45 |
